# Assay results collected from several papers.
Compound,assay,system,conditions,scale,measurement,value
N.N.O=C([O-])C1(C(=O)[O-])CCC1.[Pt+2],measured: unbound platinum,"human, plasma ultrafiltrate","intravenous, AUC 3, median, dose level -1",,Cmax,19000 ng/mL
Cc1ncc2n1-c1ccc(Cl)cc1C(c1ccccc1F)=NC2,,"healthy human volunteers, plasma","oral, CYP3A probe substrate, together with: momelotinib",relative to: compound alone,Cmax ratio,91.8%
OCc1ncc2n1-c1ccc(Cl)cc1C(c1ccccc1F)=NC2,,"human, plasma","7.5 mg midazolam, day 12, geometric mean, together with: amenamevir 400 mg",,Cmax,15.9 ng/mL
O[C@H]1CCCN[C@@H]1CCCn1cnc2c(Cl)c(Cl)ccc21,,"healthy humans, plasma","oral, 150 mg twice daily",,Cmax at steady state geometric LS mean,284 ng/mL
CC[C@H](C)[C@H](NC(=O)[C@H](CC(C)C)NC(=O)[C@H](Cc1c[nH]c2ccccc12)NC(=O)[C@H](CCC(N)=O)NC(=O)[C@@H](NC(=O)[C@H](Cc1ccccc1)NC(=O)[C@H](C)NC(=O)[C@H](CCCCNC(=O)COCCOCCNC(=O)COCCOCCNC(=O)CC[C@H](NC(=O)CCCCCCCCCCCCCCCCCCC(=O)O)C(=O)O)NC(=O)[C@H](CCC(N)=O)NC(=O)[C@H](C)NC(=O)[C@@H](NC(=O)[C@H](CCCCN)NC(=O)[C@H](CC(=O)O)NC(=O)[C@H](CC(C)C)NC(=O)C(C)(C)NC(=O)[C@@H](NC(=O)[C@H](CO)NC(=O)[C@H](Cc1ccc(O)cc1)NC(=O)[C@H](CC(=O)O)NC(=O)[C@H](CO)NC(=O)[C@@H](NC(=O)[C@H](Cc1ccccc1)NC(=O)[C@@H](NC(=O)CNC(=O)[C@H](CCC(=O)O)NC(=O)C(C)(C)NC(=O)[C@@H](N)Cc1ccc(O)cc1)[C@@H](C)O)[C@@H](C)O)[C@@H](C)CC)[C@@H](C)CC)C(C)C)C(=O)N[C@@H](C)C(=O)NCC(=O)NCC(=O)N1CCC[C@H]1C(=O)N[C@@H](CO)C(=O)N[C@@H](CO)C(=O)NCC(=O)N[C@@H](C)C(=O)N1CCC[C@H]1C(=O)N1CCC[C@H]1C(=O)N1CCC[C@H]1C(=O)N[C@@H](CO)C(N)=O,,human,"subcutaneous, 5 mg, Cockcroft-Gault creatinine clearance",,Cmax slope versus CLcr,-0.59 ng/mL per mL/min
Cn1nc(NS(C)(=O)=O)c2c(Cl)ccc(-n3c([C@H](Cc4cc(F)cc(F)c4)NC(=O)Cn4nc(C(F)F)c5c4C(F)(F)[C@@H]4C[C@H]54)nc4nc(OCCC(F)(F)F)ccc4c3=O)c21,,human,"oral, dose not given, single dose tablet",relative to: powder in bottle,Cmax reduction,63%
Cn1ncc(-c2nc(N[C@H]3CC[C@H](N)CC3)ncc2Cl)c1CC1CC1,HPLC-MS/MS,human patients,"oral, 1 mg, day 5",,Cmax,1.86 ng/mL
N[C@@H](Cc1ccc(O)c(O)c1)C(=O)O,,"human, plasma","oral, carbidopa/levodopa every 3 h, together with: opicapone",relative to: after over before opicapone,Cmax ratio,1.44
Cc1nnc2n1-c1ccc(Cl)cc1C(c1ccccc1)=NC2,,human female,"dose not given, day 22",relative to: day 0,Cmax change,-5%
CC(F)(F)c1cc(F)ccc1-c1sc2cc(O)ccc2c1Oc1ccc(/C=C/C(=O)O)cc1,,"human patients, plasma","oral, 450 mg single dose",relative to: fasted,"Increase in Cmax, high-fat meal",~30%

# Excerpt of the above:
Compound,assay,system,conditions,scale,measurement,value
Cc1nnc2n1-c1ccc(Cl)cc1C(c1ccccc1)=NC2,,human female,"dose not given, day 22",relative to: day 0,Cmax change,-5%
Cn1nc(NS(C)(=O)=O)c2c(Cl)ccc(-n3c([C@H](Cc4cc(F)cc(F)c4)NC(=O)Cn4nc(C(F)F)c5c4C(F)(F)[C@@H]4C[C@H]54)nc4nc(OCCC(F)(F)F)ccc4c3=O)c21,,human,"oral, dose not given, single dose tablet",relative to: powder in bottle,Cmax reduction,63%
